Published values of several laboratories.
Parts stem from different laboratories: compare values within a part only. Changes are numbered by the printed parent chain.

Block 1
Target: Ras GTPase-activating protein-binding protein 1, full length (G3BP1, Homo sapiens, UniProt Q13283)
Sequence of UniProt Q13283 (whole entry, looked up): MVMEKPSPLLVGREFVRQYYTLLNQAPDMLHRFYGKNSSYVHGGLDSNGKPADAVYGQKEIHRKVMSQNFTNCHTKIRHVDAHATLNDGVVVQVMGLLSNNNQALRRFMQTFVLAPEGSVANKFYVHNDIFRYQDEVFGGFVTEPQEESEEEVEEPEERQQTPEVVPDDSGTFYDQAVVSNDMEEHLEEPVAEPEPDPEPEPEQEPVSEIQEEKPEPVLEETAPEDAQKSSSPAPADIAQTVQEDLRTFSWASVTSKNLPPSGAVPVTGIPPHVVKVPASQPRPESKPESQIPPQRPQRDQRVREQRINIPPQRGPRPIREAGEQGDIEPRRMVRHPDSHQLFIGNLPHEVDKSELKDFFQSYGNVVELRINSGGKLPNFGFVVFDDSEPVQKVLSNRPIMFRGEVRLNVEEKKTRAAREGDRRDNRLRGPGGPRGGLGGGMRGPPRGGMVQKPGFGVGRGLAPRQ
Method: RNA Bind-n-Seq
Form: RNA
Sample: in vitro
Tested at: 200 nM
Setting: whole 134-nt RNA, ends assumed
Added: 150 mM LiCl
Relative to: input library
Reading: higher = stronger binding
All molecules: 7-deaza-guanosine replaces G
`GGGAGUUCUACAGUCCGACGAUCAGUCCUGUGCUACACAUCGUAUGUACCGAAUCGGGGUUUUUGGGGUUUGGGGUGGGGAAAGUAUUAUGUUACGCCGUUCGGAUCUGCACUUGGAAUUCUCGGGUGUCAAGG` gave a log2 enrichment of -0.245.
For `GGGAGUUCUACAGUCCGACGAUCAAGUCCUGUGCUACACAUCGUAUGUACCGAAUCGGUUUUUGGUUUUUGGUUUUUGGAAAGUAUUAUGUUACGCCGUUCGGAUCUGCACUUUGGAAUUCUCGGGUGUCAAGG`, the log2 enrichment was -1.17.
The log2 enrichment of `GGGAGUUCUACAGUCCGACGAUCCACAGACAACACGAAACCACACAGACACAGAGGGAAGGGGUUGGGAUGGGGACAGGGUGCACAGCAGGGCGGGGUAGGACCCCAGCCCCUUGGAAUUCUCGGGUGUCAAGG` is reported as 0.51.
With `GGGAGUUCUACAGUCCGACGAUCUGGGAGGUGGAUUUUGUGUAUUUUUUUAGCUCAUUUCCAGGGGUGGGAAUUUUUUUUUAAUAUGUGUCAUGAAUAAAGUUGUUUUUGAAAUGGAAUUCUCGGGUGUCAAGG` the log2 enrichment was 0.153.

Block 2
Target: CCNB1, cyclin fold, Cln2 fusion (human)
Method: yeast growth competition, sequencing
Sample: yeast
Setting: strong parent motif
Relative to: not given
Reading: higher = stronger binding
Starting sequence: MASTL docking peptide (human); PMIAKNLMCELDE; partner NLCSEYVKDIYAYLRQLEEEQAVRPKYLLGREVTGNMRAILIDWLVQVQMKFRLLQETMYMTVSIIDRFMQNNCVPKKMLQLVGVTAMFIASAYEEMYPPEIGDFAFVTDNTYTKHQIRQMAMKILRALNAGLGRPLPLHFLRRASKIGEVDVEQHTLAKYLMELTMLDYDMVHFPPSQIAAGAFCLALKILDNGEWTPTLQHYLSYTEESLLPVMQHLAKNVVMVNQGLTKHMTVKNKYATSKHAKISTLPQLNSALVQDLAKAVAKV
`D12W`: “normalised enrichment score” 0.222.
`E10D` — result for “normalised enrichment score”: 1.55.
`M2F` — result for “normalised enrichment score”: 1.71.
`I3W`: “normalised enrichment score” 0.429.
`M8Q`: “normalised enrichment score” 0.522.
For `I3P`, “normalised enrichment score” read 0.369.

Block 3
Target: Sal-like protein 4, full length isoform B (SALL4, Homo sapiens, UniProt Q9UJQ4-2, residues 1-616)
Method: universal PBM
Form: double-stranded DNA, one strand shown
Sample: in vitro
Tested at: not given
Setting: 8-mer, flanks averaged, mean of replicates
Reading: higher = stronger binding
Target sequence (chain): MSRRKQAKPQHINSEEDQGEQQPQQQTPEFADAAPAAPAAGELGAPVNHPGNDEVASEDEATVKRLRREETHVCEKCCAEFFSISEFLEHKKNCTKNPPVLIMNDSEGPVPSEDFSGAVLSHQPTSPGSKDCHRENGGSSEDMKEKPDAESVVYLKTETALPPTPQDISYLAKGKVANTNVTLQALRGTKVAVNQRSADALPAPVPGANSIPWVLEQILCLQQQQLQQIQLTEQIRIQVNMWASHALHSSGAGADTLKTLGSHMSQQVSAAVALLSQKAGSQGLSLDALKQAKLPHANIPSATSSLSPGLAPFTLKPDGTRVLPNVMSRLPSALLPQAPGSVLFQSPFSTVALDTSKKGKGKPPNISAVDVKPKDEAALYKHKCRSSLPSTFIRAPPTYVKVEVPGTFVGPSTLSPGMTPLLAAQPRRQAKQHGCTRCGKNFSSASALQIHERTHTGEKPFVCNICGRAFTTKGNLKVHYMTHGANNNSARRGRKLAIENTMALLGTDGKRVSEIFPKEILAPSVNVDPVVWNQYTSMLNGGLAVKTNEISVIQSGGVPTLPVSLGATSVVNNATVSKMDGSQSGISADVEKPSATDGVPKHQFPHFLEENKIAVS
`ACCTGTGG` gave an E-score of -0.119.
`TCTCACAA` gave an E-score of 0.153.
For `CATCGCAG`, the E-score was -0.137.
The E-score of `GGGCCAAA` is reported as -0.18.
`GCTTCAGA` gave an E-score of -0.0479.
`ACAGTCAG` has an E-score of -0.124.

Further values, each from its own experiment
`PhoQ, residues 284 288 289 292 302 303 ALVSVA` has a fold induction of 1.93 (PhoP, residues 12 14 15 18 19 FWNTL (Escherichia coli, UniProt P23836); Sort-seq, item: YFP reporter; E. coli; PhoQ-PhoP variant library, added: 10 µM Mg2+; relative to: high Mg2+ state, higher = stronger signaling).

Excerpt of the above (block 3):
For `CATCGCAG`, the E-score was -0.137.
The E-score of `GGGCCAAA` is reported as -0.18.
